Results collected from several papers.
Parts stem from different laboratories: compare values within a part only. Substitutions count along the parent as printed.
Sequence of UniProt Q9FGV1 (whole entry, looked up): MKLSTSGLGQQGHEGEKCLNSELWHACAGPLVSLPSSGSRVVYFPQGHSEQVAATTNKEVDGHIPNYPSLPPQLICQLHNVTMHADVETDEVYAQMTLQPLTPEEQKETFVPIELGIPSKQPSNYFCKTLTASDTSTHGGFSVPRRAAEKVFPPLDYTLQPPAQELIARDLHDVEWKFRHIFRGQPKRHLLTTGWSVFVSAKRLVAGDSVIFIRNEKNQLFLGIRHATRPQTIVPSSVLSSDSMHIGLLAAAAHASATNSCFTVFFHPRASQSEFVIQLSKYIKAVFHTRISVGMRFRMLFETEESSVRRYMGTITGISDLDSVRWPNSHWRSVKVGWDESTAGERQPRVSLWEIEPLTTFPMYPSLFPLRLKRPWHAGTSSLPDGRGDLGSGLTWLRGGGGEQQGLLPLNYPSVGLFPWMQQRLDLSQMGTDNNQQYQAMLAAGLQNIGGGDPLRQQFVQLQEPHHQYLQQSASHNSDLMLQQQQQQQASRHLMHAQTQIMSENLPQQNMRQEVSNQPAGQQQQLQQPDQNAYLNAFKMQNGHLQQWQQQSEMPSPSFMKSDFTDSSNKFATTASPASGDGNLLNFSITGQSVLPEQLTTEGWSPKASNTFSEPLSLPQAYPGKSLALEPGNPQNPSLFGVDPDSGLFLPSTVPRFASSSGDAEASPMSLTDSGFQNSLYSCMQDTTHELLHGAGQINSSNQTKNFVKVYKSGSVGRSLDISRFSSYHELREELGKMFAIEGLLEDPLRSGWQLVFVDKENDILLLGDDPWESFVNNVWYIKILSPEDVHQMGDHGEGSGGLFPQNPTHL
Sequence of UniProt Q9XFM0 (whole entry, looked up): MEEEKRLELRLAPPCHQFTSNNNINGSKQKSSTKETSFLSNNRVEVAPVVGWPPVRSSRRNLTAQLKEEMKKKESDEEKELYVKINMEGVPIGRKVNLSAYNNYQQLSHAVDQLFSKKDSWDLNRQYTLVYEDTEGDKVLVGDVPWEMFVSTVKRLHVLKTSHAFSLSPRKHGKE
Sequence of UniProt Q9LQE8 (whole entry, looked up): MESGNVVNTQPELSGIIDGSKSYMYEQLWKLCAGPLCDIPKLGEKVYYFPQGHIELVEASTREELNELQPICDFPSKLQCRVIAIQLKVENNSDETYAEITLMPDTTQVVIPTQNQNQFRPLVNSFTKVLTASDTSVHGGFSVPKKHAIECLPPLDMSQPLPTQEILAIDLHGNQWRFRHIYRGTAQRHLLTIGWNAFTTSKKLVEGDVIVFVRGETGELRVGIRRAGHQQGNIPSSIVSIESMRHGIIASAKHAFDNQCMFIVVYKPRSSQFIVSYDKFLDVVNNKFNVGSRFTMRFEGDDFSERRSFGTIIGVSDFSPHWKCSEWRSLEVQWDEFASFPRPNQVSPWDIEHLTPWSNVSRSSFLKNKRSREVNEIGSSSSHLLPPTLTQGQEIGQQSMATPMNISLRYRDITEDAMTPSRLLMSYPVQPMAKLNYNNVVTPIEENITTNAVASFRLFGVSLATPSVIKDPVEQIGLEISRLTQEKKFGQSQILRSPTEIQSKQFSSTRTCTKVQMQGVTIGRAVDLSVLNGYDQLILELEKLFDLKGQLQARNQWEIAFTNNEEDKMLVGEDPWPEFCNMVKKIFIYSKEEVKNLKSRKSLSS
Sequence of UniProt Q9XED8 (whole entry, looked up): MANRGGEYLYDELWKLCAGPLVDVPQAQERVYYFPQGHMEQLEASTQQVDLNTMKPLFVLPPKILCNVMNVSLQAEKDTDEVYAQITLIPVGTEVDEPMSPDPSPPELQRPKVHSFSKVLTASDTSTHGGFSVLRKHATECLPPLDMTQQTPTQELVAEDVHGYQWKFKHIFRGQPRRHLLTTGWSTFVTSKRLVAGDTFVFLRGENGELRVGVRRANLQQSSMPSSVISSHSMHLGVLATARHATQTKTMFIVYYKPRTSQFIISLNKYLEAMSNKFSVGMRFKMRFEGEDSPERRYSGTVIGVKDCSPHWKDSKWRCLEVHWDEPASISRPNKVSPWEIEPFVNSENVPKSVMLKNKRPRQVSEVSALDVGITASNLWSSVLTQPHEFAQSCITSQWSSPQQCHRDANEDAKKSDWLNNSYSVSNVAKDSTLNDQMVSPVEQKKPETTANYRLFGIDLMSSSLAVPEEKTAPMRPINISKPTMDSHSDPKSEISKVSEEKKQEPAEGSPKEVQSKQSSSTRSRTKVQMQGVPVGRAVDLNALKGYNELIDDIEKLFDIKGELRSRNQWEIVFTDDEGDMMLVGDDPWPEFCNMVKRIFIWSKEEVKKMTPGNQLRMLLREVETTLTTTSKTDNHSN

Series 1
Target: PABPC1L2, full length, GST fusion (mouse, UniProt A0ABA7IW68)
Method: RNAcompete
Molecule type: RNA
Matrix: in vitro
Tested at: 20 nM
Setting: 7-mer, probes averaged, single round
Reference: mean of 7-mers
Direction: higher = stronger binding
Measurement: 7-mer Z-score
Target sequence (chain): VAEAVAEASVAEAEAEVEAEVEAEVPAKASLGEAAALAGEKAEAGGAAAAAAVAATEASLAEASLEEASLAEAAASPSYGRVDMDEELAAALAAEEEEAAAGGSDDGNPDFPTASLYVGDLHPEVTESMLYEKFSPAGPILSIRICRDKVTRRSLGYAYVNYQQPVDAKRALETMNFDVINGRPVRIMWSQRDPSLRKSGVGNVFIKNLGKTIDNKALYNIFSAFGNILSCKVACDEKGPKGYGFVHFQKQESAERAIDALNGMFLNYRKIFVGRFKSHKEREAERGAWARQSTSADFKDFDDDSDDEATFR
GCACGGU: 0.0116
UUUGCGC: -0.44
UUCGCUA: -0.315
UGGGCGG: 0.175
AACUCUC: -0.262
AGUCGAA: -0.079
GUUUGCG: -0.447
ACCGAUC: -0.119
AGGCUCG: -0.179
UCCUUUA: -0.0808
UUCACGG: -0.173
CGUGUUA: -0.434
UCACUAC: -0.199
GGGUCAC: 0.285
CUCAAUG: -0.204
ACGCGGC: -0.0663
CUCGGGC: 0.0116
GCAACCU: -0.121
UAAACAC: 1.82
ACGAAGA: 0.0569
CUCGCGG: -0.269
CAAUGGU: -0.0301
CCGGCGA: -0.0826
UCAGUCG: -0.286
UUGAACC: -0.304

Series 2
Target: Sal-like protein 4, full length isoform B (SALL4, Homo sapiens, UniProt Q9UJQ4-2, residues 1-616)
Method: universal PBM
Molecule type: double-stranded DNA, one strand shown
Matrix: in vitro
Tested at: not given
Setting: 8-mer, flanks averaged, mean of replicates
Direction: higher = stronger binding
Measurement: E-score
CAGTGGCC: -0.278
TATGCAGA: 0.245
GGCGGGAA: -0.127
GAACCCGC: -0.233
GAGGAAAC: -0.0842
GTGGGTAA: -0.104
AGAAGAGG: 0.018
GGATGGGA: -0.185
CTCGTAAA: -0.00196
CTCGCCGA: -0.313
GGTCGGCA: -0.21
CACGTCGG: -0.224
CTTTCACA: 0.131
ATGGAAGA: 0.165
CCTACGAG: -0.183
AATTCATG: 0.257
CGATGGGC: -0.284
GACCTAAA: -0.00035
AGTTTAAA: 0.23
ACCAGATA: 0.241
ATCCGCGC: -0.244
TGGCGACA: -0.041

Series 3
Target: Ras GTPase-activating protein-binding protein 1, RRM domain (G3BP1, Homo sapiens, UniProt Q13283)
Sequence of UniProt Q13283 (whole entry, looked up): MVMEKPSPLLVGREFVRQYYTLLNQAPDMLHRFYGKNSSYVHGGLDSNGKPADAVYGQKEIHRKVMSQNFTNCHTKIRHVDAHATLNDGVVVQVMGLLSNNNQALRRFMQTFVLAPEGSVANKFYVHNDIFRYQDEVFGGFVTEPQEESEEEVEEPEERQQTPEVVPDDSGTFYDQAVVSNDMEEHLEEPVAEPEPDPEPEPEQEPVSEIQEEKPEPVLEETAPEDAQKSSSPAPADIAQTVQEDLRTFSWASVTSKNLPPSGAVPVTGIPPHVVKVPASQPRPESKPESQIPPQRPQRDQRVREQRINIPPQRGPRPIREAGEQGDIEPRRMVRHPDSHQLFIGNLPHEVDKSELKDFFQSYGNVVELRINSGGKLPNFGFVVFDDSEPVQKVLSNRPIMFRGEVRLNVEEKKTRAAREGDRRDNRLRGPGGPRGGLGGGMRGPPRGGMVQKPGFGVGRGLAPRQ
Method: RNA Bind-n-Seq
Molecule type: RNA
Matrix: in vitro
Tested at: 1 µM
Setting: whole 134-nt RNA, ends assumed
Added: 150 mM KCl
Reference: input library
Direction: higher = stronger binding
Measurement: log2 enrichment
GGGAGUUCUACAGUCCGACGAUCAAGUCCUGUGCUACACAUCGUAUGUACCGAAUCGGGGAAAGGGGAGGGGAAAGGGGAAAGUAUUAUGUUACGCCGUUCGGAUCUGCACUUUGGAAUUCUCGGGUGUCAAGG: 1.11
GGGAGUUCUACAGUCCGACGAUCACCAUGCAGGUGCGCAUCUUUGGGAAGUGGGGCAAGGGGGGGAUAGGGAGGGGGGUAACACUUUGGGAACAGGUGGUCCCAGGUCGUUUCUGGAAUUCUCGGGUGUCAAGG: -0.465
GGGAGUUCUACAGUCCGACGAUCUAACUUUAGAGGAGGAUCUGGUGGAUAUGGCAGUGGACGUGGAUUUGGGGAUGGCUAUAAUGGGUAUGGAGGAGGACCUGGAGGUGGCAAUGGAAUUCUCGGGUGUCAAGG: -0.814
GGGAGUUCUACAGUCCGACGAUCUUAUUGAACUGACAAGGUCCUCCCUGUGUUGUAGCAAGGACCAGACUGGCUUGAGCUCUCUGAGAUGACCGAGCAGCCAGACUAUGACCUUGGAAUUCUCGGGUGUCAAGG: 0.211
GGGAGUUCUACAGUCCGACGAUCGCCAUGCAGGUGGGCAUCUUUGGGAAGUGGGGCAAGGGGGGGAUAGGGAGGGGGGUAACACUUUGGGAACAGGUGGUCCCAGGUCGUUUCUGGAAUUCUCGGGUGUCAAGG: -0.618
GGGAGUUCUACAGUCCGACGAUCUGGCCCUGGUGGCAUGCGGGGAGGAAGAGGUGGCCUCAUGGAUCGUGGUGGUCCCGGUGGAAUGUUCAGUGGUGGCCGUGGUGGAGACAGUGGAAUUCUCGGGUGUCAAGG: 2.39
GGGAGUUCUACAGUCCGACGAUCACCAUGCAGGUGGGCAUCUUUGGGAAGUGGGGCAAGGGGGGGAUAGGGAGGGGGGUAACACUUUGGGAACAGGGGGUCCCAGGUCGUUUCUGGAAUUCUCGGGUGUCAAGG: 0.769
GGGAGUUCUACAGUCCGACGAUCUUCGACGAAACAAUUCGAAAGCCCAUCAGUUUGGGUUGUGGCCAUACUGUCUGCAAGAUGUGCCUGAAUAAACUCCACCGCAAGGCUUGCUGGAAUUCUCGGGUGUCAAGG: -0.0467
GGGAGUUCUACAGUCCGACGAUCGCAGGAAGUAAAAACAAAUGGAAAUGCUUCGGAUAGUGGCAGGGGUGGGGGUUGCUAAGGAAAGGGUGGGAUGGGAGUGGGUAAAGACUUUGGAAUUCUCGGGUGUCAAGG: 0.731
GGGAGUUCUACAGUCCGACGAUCUCAAGUCCUGUGCUACACAUCGUAUGUACCGAAUCGGGCCCGGCCCGGGGCCCGGAAAGUAUUAUGUUACGCCGUUCGGAUCUGCACUUCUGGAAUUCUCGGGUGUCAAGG: -0.743
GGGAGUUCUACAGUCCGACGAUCUCAAGUCCUGUGCUACACAUCGUAUGUACCGAAUCGGGAGGGAAAAAGGGAGGGAAAGUAUUAUGUUACGCCGUUCGGAUCUGCACUUCCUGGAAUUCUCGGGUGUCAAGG: 0.846
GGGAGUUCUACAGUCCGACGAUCCACAGACAACACGCACCCACACAGACACAGAGGGAAGGGGUUGGGAAGGGGACAGGGUGCACAGCAGGGCGGGGUAGGACCCCAGCCCCUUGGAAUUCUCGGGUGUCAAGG: -0.0937
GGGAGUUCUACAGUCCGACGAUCCUCAAGUCCUGUGCUACACAUCGUAUGUACCGAAUCGGGUGGGUGGGUUUGGGAAAGUAUUAUGUUACGCCGUUCGGAUCUGCACUUCCAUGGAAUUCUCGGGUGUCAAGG: 0.657
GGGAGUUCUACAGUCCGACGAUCCUCAAGUCCUGUGCUACACAUCGUAUGUACCGAAUCGGGGCCGGGGCCGGCCGGAAAGUAUUAUGUUACGCCGUUCGGAUCUGCACUUCCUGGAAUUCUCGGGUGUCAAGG: -0.816

Series 4
Target: ABI1, truncated, D143A, DHFR fusion (Arabidopsis thaliana)
Method: DHFR PCA, deep sequencing
Matrix: yeast
Setting: methotrexate growth selection, single substitutions
Added: (+)-ABA 0.39 µM
Reference: wild-type fitted maximum
Direction: higher = stronger binding
Measurement: relative binding score
Parent: PYL1, truncated, DHFR fusion (Arabidopsis thaliana); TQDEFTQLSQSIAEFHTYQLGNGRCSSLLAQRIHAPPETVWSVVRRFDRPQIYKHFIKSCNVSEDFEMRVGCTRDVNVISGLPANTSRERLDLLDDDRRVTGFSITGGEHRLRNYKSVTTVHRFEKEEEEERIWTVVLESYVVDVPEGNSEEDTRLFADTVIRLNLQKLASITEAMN
F66D: 5.1%
W41A: -11.1%
T86C: 49.5%
F157W: 25.7%
T173Q: -11.2%
D95A: -9.55%
M68S: -1.67%
A35R: -5.5%
T106A: -10.6%
T160S: 5.22%
Y141M: -9.8%
W134F: 46.2%

Series 5
Sequence: B1 (IAA17)
Method: two-hybrid
Direction: higher = firmer interaction
Measurement: positive tests
B1: IAA17 (Arabidopsis thaliana, UniProt P93830); chain MMGSVELNLRETELCLGLPGGDTVAPVTGNKRGFSETVDLKLNLNNEPANKEGSTTHDVVTFDSKEKSACPKDPAKPPAKAQVVGWPPVRSYRKNVMVSCQKSSGGPEAAAFVKVSMDGAPYLRKIDLRMYKSYDELSNALSNMFSSFTMGKHGGEEGMIDFMNERKLMDLVNSWDYVPSYEDKDGDWMLVGDVPWPMFVDTCKRLRLMKGSDAIGLAPRAMEKCKSRA
ARF14 497-605 (Arabidopsis thaliana, UniProt Q9LQE8); reference: out of 2 tests: 0
ARF9 519-638 (Arabidopsis thaliana, UniProt Q9XED8); weak activation fusion; reference: out of 4 tests: 2
IAA28 (Arabidopsis thaliana, UniProt Q9XFM0); reference: out of 4 tests: 3
ARF8 699-811 (Arabidopsis thaliana, UniProt Q9FGV1); reference: out of 4 tests: 4

Series 6
Target: CCNB3, cyclin fold, Cln2 fusion (human)
Method: yeast growth competition, sequencing
Matrix: yeast
Setting: weak parent motif
Reference: not given
Direction: higher = stronger binding
Measurement: normalised enrichment score
Parent: E2F2 docking peptide (human); LPAKRKLDLEGIG; partner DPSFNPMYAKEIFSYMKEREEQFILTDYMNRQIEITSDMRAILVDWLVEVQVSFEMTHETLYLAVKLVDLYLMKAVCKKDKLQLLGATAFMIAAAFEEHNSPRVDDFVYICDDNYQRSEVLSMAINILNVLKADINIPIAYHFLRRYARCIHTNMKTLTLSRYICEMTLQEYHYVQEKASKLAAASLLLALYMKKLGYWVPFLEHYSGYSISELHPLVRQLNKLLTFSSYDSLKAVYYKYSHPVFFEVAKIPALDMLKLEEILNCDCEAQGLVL
K4A: 1.41
D8A: 0.0616
I12A: 0.605
R5K L9F: 1.81
L7A: 0.00288
E10A: 0.231
L9A: 0.0551

Series 7
Target: Interferon regulatory factor 5, full length, phosphomimetic (IRF5, Homo sapiens, UniProt Q13568-2, residues 1-514, S451D/S453D/S456D/S462D)
Method: protein-binding microarray
Molecule type: double-stranded DNA, one strand shown
Matrix: in vitro
Tested at: 940 nM top
Setting: 60-bp whole probe
Added: salmon DNA 0.4 mg/ml
Reference: random background probes
Direction: higher = stronger binding
Measurement: fitted relative affinity
Shared flanks, not repeated: GCCTAGCAC … GTCTTGATTCGCTTGACGCTGCTG
GACGGTATCAGGTTTCGGGACGTGCTA: 3.97 z-score
GACGGTCTCGGGTTTCGGGACGTGCTA: 3.5 z-score
TCATGTTTGGGCATTTTTACTGTGCTA: 0.0479 z-score
TTAGAACTGGGGTTTGGATTAGTGCTA: -0.196 z-score
TTAGGTCTCGGACTGGATTAGTGCTAG: 0.976 z-score
GACGGTCTAGGTTTCGGGACGTGCTAG: 3.27 z-score
GTCGATATCGGGTATCGAGACGTGCTA: 1.67 z-score
TTAGGACTGCTTTTCCTTTGGTGCTAG: -0.138 z-score
TCATAAACTAGAAACTGAACTGTGCTA: -0.095 z-score
GACGAAATGGGGTTTCGAGACGTGCTA: 2.4 z-score
GACGTTATCGGGACTGGAGACGTGCTA: -0.242 z-score
CTGGTTTTTACTTTCTGAATGTGCTAG: 1.69 z-score
ATAGGTTTCGGGTATCGGTTAGTGCTA: 9.94 z-score
CCCAATTGTCTTTTCACTTTGTGCTAG: 1.53 z-score
TTAAATTTCAGACTGGATTAGTGCTAG: -0.11 z-score
GAAGGTTTCGGTTTCGGGACGTGCTAG: 12.8 z-score
ATTTGTAAGTACATTAACTCGTGCTAG: -0.321 z-score
TTAGGTATCGACTTTCGGGTAGTGCTA: 5.21 z-score
TTAGGTTCCCTTTTGCTTTAGTGCTAG: 0.424 z-score
TCATCTCTCCCATTCTGACTGTGCTAG: 1.32 z-score
TCATCTTTTCTGTTGTCACTGTGCTAG: 1.95 z-score
GAGGCTTTTTTTTTTTTTTTGTGCTAG: 0.326 z-score

For quick reference, copied from above (series 7):
GAGGCTTTTTTTTTTTTTTTGTGCTAG: 0.326 z-score
TTAGAACTGGGGTTTGGATTAGTGCTA: -0.196 z-score
TTAGGTATCGACTTTCGGGTAGTGCTA: 5.21 z-score
GACGTTATCGGGACTGGAGACGTGCTA: -0.242 z-score
GTCGATATCGGGTATCGAGACGTGCTA: 1.67 z-score
GAAGGTTTCGGTTTCGGGACGTGCTAG: 12.8 z-score
TTAGGACTGCTTTTCCTTTGGTGCTAG: -0.138 z-score
CCCAATTGTCTTTTCACTTTGTGCTAG: 1.53 z-score
GACGGTCTCGGGTTTCGGGACGTGCTA: 3.5 z-score
